Experimental data collected from several papers.
Lines come from different studies, so protocols differ. Values joined by “and” are separate records of one study, mostly repeats; a detail may differ. ± marks the error that the study gave.

CC1(F)C(O)C(CO)OC1n1cnc2c(=O)[nH]c(N)nc21 (stereo not shown) — Cmax, geometric mean (healthy adult humans, plasma; oral, 550 mg once daily, day 6, fasted, given alone): 228 ng/mL
CN[C@H](CC(C)C)C(=O)N[C@H]1C(=O)N[C@@H](CC(N)=O)C(=O)N[C@H]2C(=O)N[C@H]3C(=O)N[C@H](C(=O)N[C@H](C(=O)N[C@H](CCCNC(=N)N)C(N)=O)c4cc(O)cc(O)c4-c4cc3ccc4O)[C@H](O)c3ccc(c(Cl)c3)Oc3cc2cc(c3O[C@@H]2O[C@H](CO)[C@@H](O)[C@H](O)[C@H]2O[C@H]2C[C@](C)(N)[C@H](O)[C@H](C)O2)Oc2ccc(cc2Cl)[C@H]1O — Cmax (female CD-1 mouse, plasma; intravenous, 5 mg/kg, single dose): 13100 ng/mL
C=CC(=O)Nc1cc(Nc2nccc(-c3c[nH]c4ccccc34)n2)c(OC)cc1N(C)CCN(C)C — recovery (storage stability; human dried blood spots; 24 h, -80 °C, high QC level): 94.2%
COc1ccnc(C(=O)N[C@H]2COC(=O)[C@H](Cc3ccccc3)[C@@H](OC(=O)C(C)C)[C@H](C)OC2=O)c1O — DT50 (aerobic dark soil incubation; clay loam soil; 20 °C, modelling endpoint): 7.68 days
CN1CCC[C@]1(C)/C=C/S(=O)(=O)NC(=O)Nc1c2c(cc3c1C(O)CC3)CCC2 (stereo partly shown) — Tmax at second steady-state dose (human, plasma; oral, 100 mg twice daily of parent drug, day 14, metabolite of dosed drug): 3 h
Fc1cncc(-c2ccc3[nH]c4ncnc(N[C@H]5CC[C@H](N6CCOCC6)CC5)c4c3c2)c1 — AUC(0-t) (ICR mice, plasma; intravenous, 1 mg/kg): 160 ± 122 ng·h/mL
COc1cccc(OC)c1-c1cc(C(=O)NC2(C(=O)O)C3CC4CC(C3)CC2C4)nn1-c1ccc(C(=O)NCCNC(=O)[C@H](CCCCNC(=O)[C@H](CC(C)C)NC(=O)C2OC2C(=O)O)NC(=O)CN2CCN(CC(=O)[O-])CCN(CC(=O)[O-])CCN(CC(=O)[O-])CC2)cc1C(C)C.[177Lu+3] (mixture of isomers) — tumour-to-heart ratio (mouse, HT-29 xenograft; 72 h post injection, biodistribution; relative to: tumour over heart uptake): 32.4
OC1(C(F)(F)F)CCN(c2nc(Nc3ccnc(C(F)(F)F)c3)nc(-c3cccc(C(F)(F)F)n3)n2)C1 (stereo not shown) — Tmax (monkey, plasma; oral, 1 mg/kg): 5.33 ± 1.03 h
Cc1cccc(Cn2ncc3c4cc(F)c(CN(C)C)cc4n(C)c3c2=O)n1 — plasma concentration (Dutch-belted rabbit, plasma; intravitreal, 100 µM vitreous, 0.04 days): 3.32 ng/mL
O=C(CN1CCN(CC(=O)NCc2ncccc2O)CCN(CC(=O)NCc2ncccc2O)CCN(CC(=O)NCc2ncccc2O)CC1)NCc1ncccc1O.[177Lu+3] — tissue uptake (Sprague-Dawley rat, blood; intravenous (tail vein), dose not given, 2 h): 0.071 ± 0.024 % injected dose/g
COCC1CN(C2CCN(c3cc(OC)c(Nc4ncc(Br)c(Nc5ccc6c(c5P(C)(C)=O)OCCO6)n4)cc3C)CC2)C1 — serious adverse events (first-in-human trial; human; oral, 10 mg once daily; treatment-related): 0%
O=C(c1ccccc1)N1C(c2ccc(OCC3CCN(CCCF)C3)cc2)c2ccc(O)cc2CC12CC2 (stereo not shown) — half-life (C57BL/6J mouse, plasma; oral, 25 mg/kg): 3.84 h
COc1cccc(OC)c1-c1cc(C(=O)NC2(C(=O)O)C3CC4CC(C3)CC2C4)nn1-c1ccc(C(=O)N(C)CCCN(C)CCCN(C)C(=O)[C@H](CCCCNC(=O)[C@H](CC(C)C)NC(=O)C2OC2C(=O)O)NC(=O)CN2CCN(CC(=O)[O-])CCN(CC(=O)[O-])CCN(CC(=O)[O-])CC2)cc1C(C)C.[177Lu+3] (mixture of isomers) — tumour-to-heart ratio (mouse, HT-29 xenograft; 4 h post injection, biodistribution; relative to: tumour over heart uptake): 7.36
O=C(Nc1cnccc1-c1ccc([18F])cc1)c1ccnc(NC(=O)C2CC2)c1 — mean SUV (ex vivo gamma counting; FVB/NJ mice, both sexes, caudate nucleus; intravenous, 120 min, together with: tariquidar 15 mg/kg iv): 0.25
CCCC[C@H](NC(=O)CNC(=O)CNC(=O)[C@H](CCCCNC(=O)[C@H](CC(N)=O)NC(=O)C(C)c1ccc(CC(C)C)cc1)NC(=O)CN1CCN(CC(=O)O)CCN(CC(=O)O)CCN(CC(=O)O)CC1)C(=O)N[C@H]1CC(=O)NCCCC[C@@H](C(N)=O)NC(=O)[C@H](Cc2c[nH]c3ccccc23)NC(=O)[C@H](CCCNC(=N)N)NC(=O)[C@@H](Cc2ccccc2)NC(=O)[C@H](Cc2c[nH]cn2)NC1=O (stereo partly shown) [lutetium-177 labelled] — tumour-to-tissue ratio (C57 mice, tumour; 2 h; relative to: liver): 2.35
O=C(CCc1cn(CCOCCOCCOCC[18F])nn1)Nc1ccc(-c2nnc(-c3ccccn3)nn2)nc1 — tumour to control tumour ratio (BALB/c nude mouse, LS174T xenograft; intravenous, dose not given, 1 h, together with: CC49-TCO pretargeting): 1
Cc1ccc(CN2C(=O)/C(=N\c3ccc(Cl)cc3Br)c3ccccc32)cc1 — haematocrit (mouse, blood; 100 mg/kg): 37.4 ± 2.43%
Cc1ncsc1-c1ccc(CNC(=O)[C@@H]2C[C@@H](O)CN2C(=O)[C@@H](NC(=O)COCC(C)(COCCOCCOCCNC(=O)C[C@@H]2N=C(c3ccc(Cl)cc3)c3c(sc(C)c3C)-n3c(C)nnc32)COCCOCCOCCNC(=O)C[C@@H]2N=C(c3ccc(Cl)cc3)c3c(sc(C)c3C)-n3c(C)nnc32)C(C)(C)C)cc1 — plasma concentration (male C57BL/6 mice, plasma; subcutaneous, 5 mg/kg, 30 min, sample diluted 20-fold): 1310 ng/mL
Cc1cc(C)n(CCN(CCN)CCCCCCNC(=O)[C@@H](N)Cc2c[nH]cn2)n1.[99Tc+].[C-]#[O+].[C-]#[O+].[C-]#[O+] — tumour-to-tissue ratio (BALB/c nude mice A549 xenograft; intravenous, 24 h; relative to: tumour over lung): 2
C#CCNC(=O)C(CC(C)(C)F)NC(c1ccc(-c2ccc(S(C)(=O)=O)cc2)cc1)C(F)(F)F (stereo not shown) — cysteine adduct formation (MES buffer; 100 µM, 23 h, pH 5.5, 37 °C, together with: cysteine 10 mM): < 1%
CCCCN1C(=O)c2cccc3c(NCCCCN4CCOCC4)ccc(c23)C1=O — fluorescence quantum yield (toluene): 0.34
C=C(NC(=O)c1csc(-c2nc3c(cc2O)-c2nc(cs2)C(=O)NC(C(C)O)C(=O)NC(=C(C)OC)c2nc(cs2)C(=O)NC2c4nc(cs4)C(=O)NC(COC(=O)c4c5c6c(cccc6n4O)COC(=O)C(OC4CC(C)(O)C(N(C)C)C(C)O4)C2OC5)c2nc-3cs2)n1)C(N)=O (stereo not shown) — Tmax (cynomolgus monkey, female, plasma; intravenous infusion, 3 mg/kg multiple doses, day 7): 0.06 h
C=CC(=O)Nc1cc(Nc2nccc(-c3cn(C)c4ccccc34)n2)c(OC)cc1N(C)CCNC — recovery (storage stability; human dried blood spots; 72 h, on ice, LLOQ level): 73.3%
CCCCCCCOc1ccc(CC[C@](N)(CO)COP(=O)(O)O)cc1C(F)(F)F — half-life (healthy human males, plasma; oral, 0.25 mg, day 21): 404 h
C=Cc1c(C)c2cc3nc(c(CC(=O)OCCOCCOCCOC)c4[nH]c(cc5nc(cc1[nH]2)C(C)=C5CC)c(C)c4C(=O)O)[C@@H](CCC(=O)OCCOCCOCCOC)[C@@H]3C — compound loss (LC-MS; methanol-water 9:1; 1 h, pH 8.0): 18%
NCCCC[C@H](NC(=O)[C@H](Cc1c[nH]c2ccccc12)NC(=O)[C@H](Cc1c[nH]c2ccccc12)NC(=O)[C@@H](N)Cc1c[nH]c2ccccc12)C(N)=O — vesicle-associated concentration (Trp fluorescence; DOPC unilamellar vesicles; 120 min, pH 7.2): ~300 µM
C[N+](C)(CCOCCOCCOCCNC(=S)Nc1ccc(C[C@H]2CN(CC(=O)[O-])CCN(CC(=O)[O-])CCN2CC(=O)[O-])cc1)C[c-]1cccc1.[64Cu+2].[Fe+2].c1cc[cH-]c1 — tumour uptake (pretargeted PET; nude mouse, BxPC-3 xenograft; 24 h post-radioligand, 216 h lag time): 0.7 ± 0.1 %ID/mL
Cc1nn(-c2nc3c(F)cc(F)cc3s2)c(O)c1C(c1ccc(C(F)(F)F)cc1)c1c(C)nn(-c2nc3c(F)cc(F)cc3s2)c1O — Tlag (ICR mouse, plasma; oral, 50 mg/kg): 0 h
O=C(Nc1cnccc1-c1ccc([18F])nc1)c1ccnc(NC(=O)C2CC2)c1 — SUV (FVB/NJ mouse, both sexes, liver; intravenous, 15 min): 9.37
CN(O)C(=O)CCC(=O)NCCCN(CCCCN(CCCNC(=O)CCC(=O)N(C)O)C(=O)CCC(=O)N(C)O)C(=O)CCC(=O)N(C)O.[89Zr] — intact complex (radio-TLC; aqueous buffer; 1 d, pH 7, 37 °C, 89Zr-labelled complex, together with: DTPA 100-fold excess): 98.7 ± 0.6%
O=C(NS(=O)(=O)c1cccs1)c1cc2ccccc2n1Cc1ccc(Br)c2ccccc12 — body weight (KM mouse, chronic hyperuricaemia model; dose not given, day 7): 28.4 g and 30 g and 28 g and 24.4 g and 27.2 g and 28.8 g
CN1C(=O)[C@@H](Cc2ccc(O)c(I)c2)NC(=O)CNC(=O)[C@H](Cc2ccc3ccccc3c2)NC(=O)[C@H](CCCNC(=N)N)NC(=O)[C@H]1CCCNC(=O)c1ccc(CNC(=O)CN2CCN(CC(=O)O)CCN(CC(=O)O)CCN(CC(=O)O)CC2)cc1 [lutetium-177 labelled] — total absorbed dose (2; human, extrapolated from mouse, Upper large intestine wall): 0.17 mGy/MBq
CCCC[C@H]1C(=O)N(C)[C@@H](CCCC)C(=O)N[C@@H](CCCCNC(=S)Nc2ccc(CN3CCN(CC(=O)O)CCN(CC(=O)O)CC3)cc2)C(=O)N[C@H](C(=O)NCC(N)=O)CSCC(=O)N[C@@H](Cc2ccc(O)cc2)C(=O)N(C)[C@@H](C)C(=O)N[C@@H](CC(N)=O)C(=O)N2CCC[C@H]2C(=O)N[C@@H](Cc2cnc[nH]2)C(=O)N[C@@H](CCC(=O)O)C(=O)N2C[C@H](O)C[C@H]2C(=O)N[C@@H](Cc2c[nH]c3ccccc23)C(=O)N[C@@H](CO)C(=O)N[C@@H](Cc2cn(CC(=O)O)c3ccccc23)C(=O)N1C [fluorine-18 labelled] — tumour uptake (BFTC-909 subcutaneous xenograft, NSG mouse, tumour; intravenous, 60 min): 12.6 ± 4.38 %ID/g
CCCC[C@H](NC(=O)CNC(=O)CNC(=O)[C@H](CCCCNC(=O)[C@H](CC(=O)O)NC(=O)C(C)c1ccc(CC(C)C)cc1)NC(=O)CN1CCN(CC(=O)O)CCN(CC(=O)O)CCN(CC(=O)O)CC1)C(=O)N[C@H]1CC(=O)NCCCC[C@@H](C(N)=O)NC(=O)[C@H](Cc2c[nH]c3ccccc23)NC(=O)[C@H](CCCNC(=N)N)NC(=O)[C@@H](Cc2ccccc2)NC(=O)[C@H](Cc2c[nH]cn2)NC1=O (stereo partly shown) [lutetium-177 labelled] — tumour to tissue ratio (C57 mouse; intravenous, 2 h, together with: NDP-MSH blockade; relative to: tumour over muscle): 4.64
CN1CCC[C@]1(C)/C=C/S(=O)(=O)NC(=O)Nc1c2c(cc3c1CCC3)CC=C2 — Tmax at second steady-state dose (human, plasma; oral, 100 mg twice daily of parent drug, day 14, metabolite of dosed drug): 3 h
C=CC(=O)Nc1cc(Nc2nccc(-c3cn(C4CC4)c4ccccc34)n2)c(OC)cc1N(C)CCNC — relative error (bench-top stability; rat plasma; 40 ng/mL, 3 h, room temperature; relative to: nominal concentration): 0.5%
Cc1nc(N)nc2c1C(=O)N[C@@H](c1ccc(F)cc1-c1cccc(O[11CH3])n1)C2 — tracer uptake (ex vivo biodistribution; mice, MDA-MB-231 subcutaneous xenograft, spleen; 60 min post-injection, baseline, vehicle pre-treatment): 1.5 ± 0.5 %ID
COC(=O)C(C)n1nc(Cn2cc3cc(OCC[18F])c(Cl)cc3n2)c2ccccc2c1=O (racemic) — radiometabolite (rat, brain; 90 min): 36%
C[C@H](C(=O)O)c1ccc(-c2ccccc2)c(F)c1 — relative change of HPLC peak area (HPLC; solution; concentration not given, 12 h, room temperature): 1.1%
CC[C@H](C)[C@@H]1NC(=O)[C@H](Cc2ccc(O)cc2)NC(=O)CCCSC[C@@H](C(=O)N(CC(=O)N[C@@H](CC(C)C)C(=O)NCC(N)=O)Cc2ccc(F)cc2)NC(=O)[C@H](CC(N)=O)NC(=O)[C@H](CCC(N)=O)NC1=O — AUC(0-inf) (human, plasma; intravenous, 20 µg, infusion): 0.158 ng·h/mL

Repeated from above:
C=CC(=O)Nc1cc(Nc2nccc(-c3c[nH]c4ccccc34)n2)c(OC)cc1N(C)CCN(C)C — recovery (storage stability; human dried blood spots; 24 h, -80 °C, high QC level): 94.2%
COc1ccnc(C(=O)N[C@H]2COC(=O)[C@H](Cc3ccccc3)[C@@H](OC(=O)C(C)C)[C@H](C)OC2=O)c1O — DT50 (aerobic dark soil incubation; clay loam soil; 20 °C, modelling endpoint): 7.68 days
CN1CCC[C@]1(C)/C=C/S(=O)(=O)NC(=O)Nc1c2c(cc3c1C(O)CC3)CCC2 (stereo partly shown) — Tmax at second steady-state dose (human, plasma; oral, 100 mg twice daily of parent drug, day 14, metabolite of dosed drug): 3 h
Fc1cncc(-c2ccc3[nH]c4ncnc(N[C@H]5CC[C@H](N6CCOCC6)CC5)c4c3c2)c1 — AUC(0-t) (ICR mice, plasma; intravenous, 1 mg/kg): 160 ± 122 ng·h/mL
